Experimental data gathered from unrelated publications.
A part holds a random share of what one study measured. Values joined by “and” are separate records of one study, mostly repeats; a detail may differ.

Block 1
Target: 5-hydroxytryptamine receptor 2A (HTR2A, Homo sapiens, UniProt P28223)
Chain of UniProt P28223 (whole entry, looked up): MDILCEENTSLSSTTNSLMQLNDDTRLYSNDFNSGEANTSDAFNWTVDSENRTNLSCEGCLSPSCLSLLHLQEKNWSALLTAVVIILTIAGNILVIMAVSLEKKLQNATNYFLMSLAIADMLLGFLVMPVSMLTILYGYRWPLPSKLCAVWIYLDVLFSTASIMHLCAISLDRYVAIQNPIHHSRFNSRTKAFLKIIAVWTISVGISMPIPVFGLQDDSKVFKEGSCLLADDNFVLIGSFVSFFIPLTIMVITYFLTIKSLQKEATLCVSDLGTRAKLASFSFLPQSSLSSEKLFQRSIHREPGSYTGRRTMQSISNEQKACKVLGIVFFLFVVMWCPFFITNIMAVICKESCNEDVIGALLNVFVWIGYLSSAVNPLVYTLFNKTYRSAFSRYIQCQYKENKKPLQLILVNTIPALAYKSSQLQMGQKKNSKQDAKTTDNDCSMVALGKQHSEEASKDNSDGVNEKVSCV
Effect on: ligand displacement
Concentration: 10 µM
`COCCOc1nc(-c2ccc(Cl)nc2)nc2c1CN(C(=O)c1ncn3ccccc13)CC2` has an inhibition of -1.4%.
For `NC(=O)c1ccc2nc(-c3ccc(C4(N)CCC4)cc3)c(-c3ccccc3)n2n1`, the inhibition was 8.08%.
The inhibition of `COc1cc(C(=O)O)ncc1C#Cc1ccccc1NS(=O)(=O)c1cccc2c(N(C)C)ccnc12` is reported as 9.61%.
`CC(=O)Nc1nc(CN2CCC[C@H](Cc3cc(C)nc(C)c3)C2)cs1` has an inhibition of 6.45%.
For `C[C@@H]1CN(c2cc(-c3n[nH]c4ccc(OC5(C)CC5)cc34)ncn2)C[C@H](C)O1`, the inhibition was 2.75%.
`CCC(F)(F)c1cc(N2CCC(S(C)(=O)=O)CC2)nc2sc(C(N)=O)c(N)c12` has an inhibition of 6.1%.
`COc1cccc(NC(=O)c2nc3scc(CN(C)Cc4ccccc4)c3c(=O)[nH]2)c1` has an inhibition of 14.9%.
`C[C@@H](c1cccc(C#N)c1)n1cc(Cl)cc(C(N)=O)c1=N` has an inhibition of 5.24%.
`CCC(=O)N[C@H]1CC[C@@H](C(=O)N(C)c2ccc(-c3nc4ccccc4o3)cc2)C1` has an inhibition of 2.34%.
With `N#CC1(c2ccccn2)CCN(Cc2cc(C(=O)O)c(=O)n3ccccc23)CC1` the inhibition was -17%.
`Cc1noc([C@H]2C[C@@H](c3ccc(C(F)(F)F)cc3)CN(C(=O)N3CCS(=O)(=O)C3)C2)n1` has an inhibition of -2.96%.
With `CN1C(=O)[C@@H](N2CCc3cn(Cc4ccccc4)nc3C2=O)COc2ccccc21` the inhibition was 3.8%.
For `CC[C@H](CC(=O)O)n1c(=O)c2ncccc2n(Cc2cn(C)c3cc(C)cc(C)c23)c1=O`, the inhibition was 0.22%.
The inhibition of `Nc1nc(NCc2ccccc2)nc(-c2ccccc2CO)n1` is reported as 2.78%.
With `C[C@@H](NC(=O)Nc1cc2[nH]ncc2c(CO)n1)c1ccccc1` the inhibition was 7.44%.
The inhibition of `Nc1nc(NCc2ccccc2)nc(-c2cccc(CO)c2)n1` is reported as 1.28%.
For `C[C@H](c1ccnc(Nc2nc3ccc(-c4cc(N(C)C)ncn4)cc3[nH]2)c1)N1CCN(C(=O)CC(F)(F)F)CC1`, the inhibition was -11.1%.
For `CCOc1ccc(S(=O)(=O)Nc2ccc(Cl)cc2C#Cc2cnc(C(=O)O)cc2OC)c2ncccc12`, the inhibition was -0.22%.
`Cc1c(NC(=O)c2cc(C(N)=O)nc3cc(F)ccc23)c(C(F)(F)F)nn1Cc1ccc(C#N)cc1` gave an inhibition of 14.3%.
For `Cc1cc2c(-c3ccco3)cnc(N[C@@H]3CCN(C)C[C@H]3C(=O)NC3CCCCC3)c2[nH]c1=O`, the inhibition was -5.01%.
For `O=C(NNS(=O)(=O)c1ccccc1F)c1cc(F)cc(-c2ccccn2)c1`, the inhibition was -7.37%.
For `Cc1cc(Nc2nccc(C)n2)cc(-c2cnc([C@@]3(O)CC[C@H](C(=O)O)C(C)(C)C3)s2)c1`, the inhibition was -4.23%.
The inhibition of `COCc1nc2cnc3cc(-c4c(C)noc4C)c(OC[C@H]4CCNC4)cc3c2n1[C@H](C)c1ccccc1` is reported as -5.06%.
For `CO[C@H]1CC[C@H](CNc2ccc(S(=O)(=O)NC(=O)c3ccc(N4CCN(CC5=C(c6ccc(Cl)cc6)CC(C)(C)CC5)CC4)cc3Oc3cnc4[nH]ccc4c3)cc2[N+](=O)[O-])CC1`, the inhibition was 12.7%.
With `C[C@H](c1ccc(F)cc1)N(Cc1cccc(C(=O)O)c1)C(=O)c1cnc2ccccc2c1` the inhibition was -0.2%.

Block 2
Target: Beta-1 adrenergic receptor (ADRB1, Homo sapiens, UniProt P08588)
Chain of UniProt P08588 (whole entry, looked up): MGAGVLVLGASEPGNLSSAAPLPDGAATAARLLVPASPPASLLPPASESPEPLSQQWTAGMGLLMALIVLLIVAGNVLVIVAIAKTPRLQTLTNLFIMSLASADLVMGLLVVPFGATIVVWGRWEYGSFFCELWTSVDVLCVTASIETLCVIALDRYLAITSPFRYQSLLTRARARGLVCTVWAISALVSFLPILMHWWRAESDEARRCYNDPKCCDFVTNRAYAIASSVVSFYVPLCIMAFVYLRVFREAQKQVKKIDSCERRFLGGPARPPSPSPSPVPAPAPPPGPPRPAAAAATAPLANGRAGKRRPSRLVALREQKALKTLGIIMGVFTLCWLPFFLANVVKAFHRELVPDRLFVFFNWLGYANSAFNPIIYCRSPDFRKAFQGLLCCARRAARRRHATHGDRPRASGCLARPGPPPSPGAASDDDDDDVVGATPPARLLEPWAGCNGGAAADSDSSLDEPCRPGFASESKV
Mode: agonist
The Emax of `CC(C)(C)NCC(O)c1ccccc1F` (centres unmarked) is reported as 93.2%.
`CC(C)NCC(O)c1ccccc1Cl` (centres unmarked) gave an Emax of 96.7%.
The Emax of `CN(C)CCc1ccc(O)cc1` is reported as 61.5%.
For `CCCN(CCc1cccs1)C1CCc2c(O)cccc2C1` (centres unmarked), the Emax was 103%.
For `CCCNC(C)Cc1ccc2c(c1)OCO2` (centres unmarked), the Emax was 70.8%.

Block 3
Target: DNA polymerase theta, helicase domain (POLQ, Homo sapiens, UniProt O75417)
Chain of UniProt O75417 (whole entry, looked up): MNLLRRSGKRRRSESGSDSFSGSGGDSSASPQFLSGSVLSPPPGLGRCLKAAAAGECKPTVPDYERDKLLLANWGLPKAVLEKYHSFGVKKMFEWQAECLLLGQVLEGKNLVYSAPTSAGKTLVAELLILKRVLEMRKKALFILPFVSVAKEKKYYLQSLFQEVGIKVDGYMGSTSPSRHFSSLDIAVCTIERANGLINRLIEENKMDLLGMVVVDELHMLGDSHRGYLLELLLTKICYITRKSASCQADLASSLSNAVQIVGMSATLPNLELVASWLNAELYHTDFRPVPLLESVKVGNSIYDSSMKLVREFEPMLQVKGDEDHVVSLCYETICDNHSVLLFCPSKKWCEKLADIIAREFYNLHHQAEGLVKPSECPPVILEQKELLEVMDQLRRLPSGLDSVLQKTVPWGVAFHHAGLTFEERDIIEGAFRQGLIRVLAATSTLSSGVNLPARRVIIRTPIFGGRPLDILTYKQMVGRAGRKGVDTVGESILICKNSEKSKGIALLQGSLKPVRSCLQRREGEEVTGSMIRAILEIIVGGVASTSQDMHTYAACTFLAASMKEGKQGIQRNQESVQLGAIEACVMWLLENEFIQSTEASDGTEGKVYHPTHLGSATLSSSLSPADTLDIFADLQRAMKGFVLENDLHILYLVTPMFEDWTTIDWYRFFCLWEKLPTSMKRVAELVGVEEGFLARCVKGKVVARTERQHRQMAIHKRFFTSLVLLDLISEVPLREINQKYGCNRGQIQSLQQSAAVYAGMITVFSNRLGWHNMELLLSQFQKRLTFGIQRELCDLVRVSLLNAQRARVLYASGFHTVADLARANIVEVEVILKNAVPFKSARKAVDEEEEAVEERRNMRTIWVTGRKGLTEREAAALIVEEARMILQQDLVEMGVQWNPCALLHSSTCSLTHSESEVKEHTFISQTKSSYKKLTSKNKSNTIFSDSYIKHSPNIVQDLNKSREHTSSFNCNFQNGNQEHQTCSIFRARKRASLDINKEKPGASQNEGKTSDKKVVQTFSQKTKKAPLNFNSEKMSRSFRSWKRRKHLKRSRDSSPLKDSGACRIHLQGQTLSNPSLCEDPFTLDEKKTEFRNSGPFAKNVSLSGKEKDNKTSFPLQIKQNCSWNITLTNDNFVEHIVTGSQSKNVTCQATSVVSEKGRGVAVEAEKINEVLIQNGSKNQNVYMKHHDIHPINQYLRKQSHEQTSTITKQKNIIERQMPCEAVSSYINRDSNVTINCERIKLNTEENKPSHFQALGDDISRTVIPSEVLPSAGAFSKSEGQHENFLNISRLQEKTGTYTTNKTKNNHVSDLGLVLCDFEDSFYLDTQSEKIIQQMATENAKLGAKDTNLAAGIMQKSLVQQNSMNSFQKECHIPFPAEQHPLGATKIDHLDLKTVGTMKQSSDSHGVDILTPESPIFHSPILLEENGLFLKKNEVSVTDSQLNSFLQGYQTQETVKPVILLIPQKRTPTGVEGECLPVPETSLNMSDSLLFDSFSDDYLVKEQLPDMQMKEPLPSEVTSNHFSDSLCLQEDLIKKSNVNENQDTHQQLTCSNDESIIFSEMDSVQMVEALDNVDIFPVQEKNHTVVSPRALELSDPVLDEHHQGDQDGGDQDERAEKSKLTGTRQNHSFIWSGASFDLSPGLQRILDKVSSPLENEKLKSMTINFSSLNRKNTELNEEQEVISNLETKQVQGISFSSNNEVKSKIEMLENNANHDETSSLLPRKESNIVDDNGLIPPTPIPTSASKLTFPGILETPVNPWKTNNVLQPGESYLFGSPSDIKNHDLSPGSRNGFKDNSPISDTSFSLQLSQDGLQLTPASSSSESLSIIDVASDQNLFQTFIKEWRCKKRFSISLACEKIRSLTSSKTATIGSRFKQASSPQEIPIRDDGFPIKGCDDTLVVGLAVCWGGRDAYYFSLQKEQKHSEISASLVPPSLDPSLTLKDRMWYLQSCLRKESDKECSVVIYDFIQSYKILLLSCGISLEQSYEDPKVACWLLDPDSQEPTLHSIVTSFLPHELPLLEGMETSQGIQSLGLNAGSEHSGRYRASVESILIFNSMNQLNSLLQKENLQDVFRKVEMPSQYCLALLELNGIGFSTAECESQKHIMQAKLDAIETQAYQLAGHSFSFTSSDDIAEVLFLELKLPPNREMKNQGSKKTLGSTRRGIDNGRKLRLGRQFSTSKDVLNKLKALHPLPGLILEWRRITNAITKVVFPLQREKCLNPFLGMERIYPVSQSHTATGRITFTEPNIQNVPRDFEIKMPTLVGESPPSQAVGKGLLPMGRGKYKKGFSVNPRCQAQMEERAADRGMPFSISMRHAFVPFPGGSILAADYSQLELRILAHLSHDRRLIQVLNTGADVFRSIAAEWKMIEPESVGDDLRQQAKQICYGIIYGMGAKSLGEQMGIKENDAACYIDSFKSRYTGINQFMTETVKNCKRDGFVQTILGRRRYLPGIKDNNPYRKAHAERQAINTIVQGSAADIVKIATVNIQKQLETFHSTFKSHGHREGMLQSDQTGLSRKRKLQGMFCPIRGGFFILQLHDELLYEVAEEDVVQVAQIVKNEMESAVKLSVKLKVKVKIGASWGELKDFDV
Mode: inhibitor
Concentration: concentration not given
Added: with ssDNA
With `CN(N=O)c1ccc(O)c(O)c1` the remaining activity was 39.8% and 36.3%.
With `COc1cc(C(c2c(O)c3ccccc3oc2=O)c2c(C)n(C)n(-c3ccccc3)c2=O)ccc1OCC(=O)O` (centres unmarked) the remaining activity was 36.4% and 36.7%.
The remaining activity of `CCN(CC)C(=O)c1ccc2c(c1)N(Cc1ccc(C(F)(F)F)cc1)C(=O)c1ccccc1S2` is reported as 53.4% and 53.2%.
The remaining activity of `CSc1ccc(C(c2c(O)c3ccccc3oc2=O)c2c(C)n(C)n(-c3ccccc3)c2=O)cc1` (centres unmarked) is reported as 71.1% and 70.2%.

Block 4
Target: Calcium/calmodulin-dependent protein kinase type II subunit alpha (CAMK2A, Homo sapiens, UniProt Q9UQM7)
Chain of UniProt Q9UQM7 (whole entry, looked up): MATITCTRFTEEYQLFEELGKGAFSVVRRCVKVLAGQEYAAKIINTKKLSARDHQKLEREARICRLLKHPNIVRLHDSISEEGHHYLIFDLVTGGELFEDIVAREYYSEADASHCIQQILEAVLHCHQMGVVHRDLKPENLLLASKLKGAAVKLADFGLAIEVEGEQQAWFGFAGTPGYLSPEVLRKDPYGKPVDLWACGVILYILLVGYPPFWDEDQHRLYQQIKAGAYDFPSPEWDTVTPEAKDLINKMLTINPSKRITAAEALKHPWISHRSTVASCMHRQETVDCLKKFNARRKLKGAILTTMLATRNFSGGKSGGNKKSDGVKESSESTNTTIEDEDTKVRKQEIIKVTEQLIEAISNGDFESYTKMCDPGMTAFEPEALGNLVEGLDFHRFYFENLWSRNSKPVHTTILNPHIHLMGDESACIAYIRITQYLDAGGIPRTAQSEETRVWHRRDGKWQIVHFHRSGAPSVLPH
Effect on: enzyme activity
Mode: inhibitor
Concentration: 10 µM
With `COc1ccc2c3c1O[C@H]1C[C@@H](O)C=C[C@@]31CCNC2` the inhibition was 6%.
The inhibition of `C=C1C[C@@H]2[C@H](CC[C@]3(C)C(=O)CC[C@@H]23)[C@@]2(C)C=CC(=O)C=C12` is reported as -6%.
`N#Cc1cn([C@@H]2O[C@H](CO)[C@@H](O)[C@H]2O)c2ncnc(N)c12` has an inhibition of -22%.
For `CN1[C@@H](CC(=O)c2ccccc2)CCC[C@H]1CC(=O)c1ccccc1`, the inhibition was -11%.
With `Oc1c(Br)cccc1Br` the inhibition was 18%.

Block 5
Compound: CC(C)S(=O)(=O)c1cc2c(Nc3ccc4sc(C5CCCC5)nc4c3)ccnc2cc1OCCO
Cell line: HT-29
Effect on: necroptosis
Technique: CCK-8
Added: TNF-α, Smac mimetic, z-VAD
The cell survival was 23.4% and 23.8% and 23.7% (0.00152 µM).
For 0.123 µM: cell survival read 52% and 45.3% and 47.3%.
For 0.014 µM: cell survival read 25.8% and 26.6% and 26.9%.
For 1.111 µM: cell survival read 98.1% and 101% and 97.5%.

Block 6
Compound: CC(C)n1cnc(-c2ccc(F)cc2)c1-c1ncc(C(=O)Nc2ccc(N3CCN(C)CC3)cc2)[nH]1
Technique: Phase 2a trial
Refers to: influenza like illness
Species: idiopathic pulmonary fibrosis patients
For 60 mg once daily, grade 3 maximum intensity: “patients with adverse events” read 0%.
For dose not given, grade 4 maximum intensity, all arms: “patients with adverse events” read 0%.
It gave 0% for “patients with adverse events” (dose not given, grade 5 maximum intensity, all arms).
30 mg once daily, grade 3 maximum intensity — “patients with adverse events”: 0%.

Block 7
Organism: Sarcocystis neurona
Effect on: parasite growth
Concentration: 10 µM
Time: 96 h
With `c1ccc(Cn2ccnc2)cc1` the inhibition was -9.6%.
`NC(=O)OCCCc1ccccc1` has an inhibition of -19.1%.
The inhibition of `C[C@H]1CCC[C@H](O)CCCCCc2cc(O)cc(O)c2C(=O)O1` is reported as -5%.

Excerpt of the above (block 6):
For 60 mg once daily, grade 3 maximum intensity: “patients with adverse events” read 0%.
For dose not given, grade 4 maximum intensity, all arms: “patients with adverse events” read 0%.
It gave 0% for “patients with adverse events” (dose not given, grade 5 maximum intensity, all arms).
30 mg once daily, grade 3 maximum intensity — “patients with adverse events”: 0%.
